Measured values collected from several papers.
Numbered parts are unrelated; each lists some results of a single study. Substitutions count along the parent as printed.

Sample 1 — technique: universal PBM; form: double-stranded DNA, one strand shown; matrix: in vitro; tested at: not given; reading: higher = stronger binding; quantity: E-score
Target: Sal-like protein 4, full length isoform B (SALL4, Homo sapiens, UniProt Q9UJQ4-2, residues 1-616)
Notes: 8-mer, flanks averaged, mean of replicates
Residues (chain): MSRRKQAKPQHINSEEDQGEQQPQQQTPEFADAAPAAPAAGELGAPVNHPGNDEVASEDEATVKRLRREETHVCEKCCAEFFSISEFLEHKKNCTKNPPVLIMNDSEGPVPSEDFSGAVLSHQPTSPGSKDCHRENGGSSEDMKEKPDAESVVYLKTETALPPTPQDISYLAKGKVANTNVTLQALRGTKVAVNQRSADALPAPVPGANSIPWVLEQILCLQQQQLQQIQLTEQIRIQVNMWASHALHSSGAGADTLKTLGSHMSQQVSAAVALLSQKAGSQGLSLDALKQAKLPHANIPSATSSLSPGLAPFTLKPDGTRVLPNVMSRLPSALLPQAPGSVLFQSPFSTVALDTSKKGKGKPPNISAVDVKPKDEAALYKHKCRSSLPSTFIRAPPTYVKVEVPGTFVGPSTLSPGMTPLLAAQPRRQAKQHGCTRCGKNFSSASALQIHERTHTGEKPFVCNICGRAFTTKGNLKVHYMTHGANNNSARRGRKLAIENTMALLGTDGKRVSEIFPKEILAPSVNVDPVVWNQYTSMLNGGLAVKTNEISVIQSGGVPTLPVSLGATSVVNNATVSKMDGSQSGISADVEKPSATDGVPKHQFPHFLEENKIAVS
ACACGCGT: -0.0578
ATGTCGTC: -0.0948
GGCAGCTA: -0.189
ATTACGTA: 0.314
ATCCGCGC: -0.244
ACAGTGTC: -0.117
TAGCAACA: 0.142
AGTACGTA: 0.208
GGGCTCAC: -0.375
ACTTCAAG: 0.158
CCGCGAGC: -0.327
GGGTCTTA: -0.112
CATACCAC: 0.0191
GGTTTGAC: -0.0313
GTGAAGGA: 0.0842
GGAGTAAA: 0.245
GCCTGACC: -0.0801
ACAAGAGC: 0.0694

Sample 2 — technique: protein binding microarray; form: double-stranded DNA, one strand shown; matrix: in vitro; tested at: not given; relative to: not given; reading: higher = stronger binding; quantity: E-score
Target: Histone acetyltransferase KAT6A, winged helix 1, GST fusion (KAT6A, Homo sapiens, UniProt Q92794, residues 1-85)
Notes: 8-mer, flanks averaged, mean of 2 arrays, mostly near background
Residues (chain): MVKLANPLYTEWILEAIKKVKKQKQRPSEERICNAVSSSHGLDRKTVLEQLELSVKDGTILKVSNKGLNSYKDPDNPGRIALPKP
ACACAGCC: -0.0263
GCGCTGAC: 0.324
AGCTGACC: -0.144
TCATGGAA: -0.188
GCTAAGAC: 0.00364
CTGTACAG: -0.0128
TATCGTCA: -0.057
ACGCTGTC: 0.0718
ATTCATTC: -0.184
GCTGTGGA: -0.0607
AGATCGGA: -0.0436
AGTTGTAT: -0.151
CATTTAAA: -0.124
CGCAGCCC: 0.13
CAACTTGC: -0.0968
ATATTACC: 0.0365
ACCGGAGT: 0.178
CACACGCA: -0.000235
CTGTTGCA: -0.0285
TGACGTCA: 0.122

Sample 3 — technique: RNA Bind-n-Seq; form: RNA; matrix: in vitro; tested at: not given; relative to: input RNA pool; reading: higher = stronger binding; quantity: bound/input enrichment
Target: RING finger protein unkempt homolog, zinc fingers 1-6, GST-SBP tag (UNK, Homo sapiens, UniProt Q9C0B0, residues 30-357)
Notes: RNA with constant flanks, human and mouse sites, ends assumed
Shared flanks, not repeated: GGGAGUUCUACAGUCCGACGAUC … CAACAGAGGAUUGAGCAUCA
Target sequence (chain): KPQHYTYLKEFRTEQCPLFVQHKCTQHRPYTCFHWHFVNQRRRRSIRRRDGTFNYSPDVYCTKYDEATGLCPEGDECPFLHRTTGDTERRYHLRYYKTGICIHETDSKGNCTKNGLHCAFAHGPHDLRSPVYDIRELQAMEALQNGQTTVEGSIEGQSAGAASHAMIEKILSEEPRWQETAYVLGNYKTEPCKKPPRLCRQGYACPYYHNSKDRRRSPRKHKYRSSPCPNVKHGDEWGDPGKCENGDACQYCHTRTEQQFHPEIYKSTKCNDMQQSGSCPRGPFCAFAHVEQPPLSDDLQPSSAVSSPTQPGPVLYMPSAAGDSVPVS
GAAGAACGAGACCGAAGAGAAAGCAAGAAGAUUGCGGAUGAAGAUGCCCUGCGGCGGAUCCGGCAGGCAGAAGAGCAGAUUGAACACUUGCAACGCAAAUUGGGUGCCACCAAGCAGGAG: 0.21 ratio
AGAAGCACACAGGCUGCCCCACAGGUUGUGCUGAAUGUCCCCGAGACACAAGUGACAUGUUUGGAAAAUGGACUCAGAGUAGCUUCUGAAAACUCUGGGCUCUCAACGUGCACAGUUGGG: 0.132 ratio
AGAACAGGUUUCUCUCUGUCCUUGACUCUUGGGUCUGUGGGCCAUGGCAUGAGUGUUUUCUAGUAGUAGAUUGGAGGGAAAGCUUUGUGACACUUAGUACUGUGUUUUUAAGAAGAAAUA: 1.72 ratio
UCUAAAAGGAAAAAAAAGUAGUGUAUUUUAUAUUUCCAUAUGCUAAUGACAUGUCUGUAAUUAGUCUUCAGUGUUCCAUAAGAAGAGAGUGAUGGUACAAGUAUCCCUAAGUAUCACUUU: 1.24 ratio
CUGAUUGGUUAUUUUUCCUUUCCUUCUGAGGUUCUCAUGUCAUUUUCUUCAUCGGAUGUGACUAAAAUUUUUCUGGUGUCUUCUGCCCUCUCUUUAAUUUUGCCUCUUGAGGGGUAGCAG: 0.367 ratio
AAAAUACUACAAGCAGGCUUCAAGAGGAUGGGCGUUGACAAAAUAAUUCCUGUGGAUAAAUUAGUAAAAGGAAAAUUUCAGGACAAUUUUGAAUUUGUUCAAUGGUUCAAGAAGUUUUUU: 0.751 ratio
UUGGUGAUUGGCAGGAUCCUGGUAUCCGCUAACAGGUCAAAAUGCAGAUCUUCGUGAAAACCCUUACCGGCAAGACCAUCACCCUUGAGGUGGAGCCCAGUGACACCAUCGAAAAUGUGA: 0.0847 ratio
AAAAUCCUCCCUCAAAGGAUUCGGGAGCUGGUCCCCGAGUCCCAGGCUUACAUGGACCUCUUGGCAUUUGAGAGGAAACUGGAUCAAACCAUCAUGCGGAAGCGGGUGGACAUCCAGGAG: 0.121 ratio
UGAUAUAUAAACCUUAAGUGAAAUGAAAGAAAAAGAUCUAUUGCAGAUAUCUGAUGGAUGUAGUUUUCUUUUUUUAAAUUAGAAAUGCCACUUCUAUUGUAUUGUCUCACACAUGCUCUA: 3.29 ratio
CUCAUGUUUGUGCGUGUGUGUGUGUAUAUUUAUGGGCAUGGGUGCAUGCUUGGUGUGUAUUUGUACAUGUCUGUAUUGCUGUGUCCCUGUAAAUACAUGCUUGUGUAUGGAUGGAAGAGG: 0.205 ratio
GCUCUUACCCCAACUUUGUCCGAAACUUCCAUUGACAAGUUGAAGUUAUCAAGCCCUGAACUUCCCAAGCCAUGGGACAGUGGAGACCUGCCACUGGAUGAAGAGAAUCCUAACUCUCUU: 0.362 ratio

Sample 4 — technique: protein-binding microarray; form: double-stranded DNA, one strand shown; matrix: in vitro; tested at: 2200 nM top; notes: 60-bp whole probe; added: salmon DNA 0.4 mg/ml; relative to: random background probes; reading: higher = stronger binding; quantity: fitted relative affinity; shared flanks, not repeated: GCCTAGCAC … GTCTTGATTCGCTTGACGCTGCTG
Target: Interferon regulatory factor 7, full length, phosphomimetic (IRF7, Homo sapiens, UniProt Q92985, residues 1-503, S471D/S472D/S475D/S476D/S477D/S483D/S484D/S487D)
UniProt Q92985, sequence (whole entry, unmodified, looked up): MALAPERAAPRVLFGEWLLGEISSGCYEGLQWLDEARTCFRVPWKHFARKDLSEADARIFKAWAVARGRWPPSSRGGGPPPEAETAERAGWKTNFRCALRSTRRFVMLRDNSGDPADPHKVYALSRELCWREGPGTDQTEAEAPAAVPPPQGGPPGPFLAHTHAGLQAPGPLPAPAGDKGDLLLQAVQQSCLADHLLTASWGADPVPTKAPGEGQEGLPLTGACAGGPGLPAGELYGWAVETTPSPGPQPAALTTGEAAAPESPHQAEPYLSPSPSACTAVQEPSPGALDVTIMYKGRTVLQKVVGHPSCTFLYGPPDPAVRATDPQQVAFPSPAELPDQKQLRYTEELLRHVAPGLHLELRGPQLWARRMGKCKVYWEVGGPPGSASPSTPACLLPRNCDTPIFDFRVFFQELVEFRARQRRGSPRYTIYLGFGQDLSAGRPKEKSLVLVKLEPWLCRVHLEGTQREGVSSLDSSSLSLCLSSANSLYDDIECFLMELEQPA
TTAGGTATCCTTTTCCTTAAGTGCTAG: 1.27 z-score
TTAGAACTAAGACTGGATTAGTGCTAG: -0.873 z-score
TTACATTTCAGACTGGATTAGTGCTAG: 1.24 z-score
GACGATTTCAGTCTCGAGACGTGCTAG: 0.933 z-score
CCTTTTTTGTTGTTTTTTGGGTGCTAG: 2.79 z-score
GACGGTTTCAGGTTTCGGGACGTGCTA: 5.13 z-score
GACGTTTTCGACTATCGGGACGTGCTA: 3.9 z-score
TCCCTTTCAGTTTTCCTCTGGTGCTAG: 5.24 z-score
TTAGATATCAGTCTCGACTAGTGCTAG: -0.0721 z-score
TCACCTTTATATACCTGACTGTGCTAG: 1.55 z-score
TTAGATATCGGGATTCGATTAGTGCTA: 0.31 z-score
GACGATATCTGTTTCGAGACGTGCTAG: 2.42 z-score
TTTGGACTGGGGTTTCGGTTAGTGCTA: 3.19 z-score
TCATATATGTGATTAAAACTGTGCTAG: 0.406 z-score
ACCCGAGTCCCTATCTCCTCGTGCTAG: 1.22 z-score
CACAACCAAACAAGAAGATGGTGCTAG: -0.212 z-score
TCAACTTGGAATTTCCCACTGTGCTAG: 0.829 z-score
TTAGATATCAGACTGGATGAGTGCTAG: -0.345 z-score
TTAGATTTCGCGTATCGATTAGTGCTA: 1.27 z-score

Sample 5 — technique: DHFR PCA, deep sequencing; matrix: yeast; added: (+)-ABA 200 µM; relative to: wild-type fitted maximum; reading: higher = stronger binding; quantity: relative binding score
Target: ABI1, truncated, D143A, DHFR fusion (Arabidopsis thaliana)
Notes: methotrexate growth selection, single substitutions
Parent: PYL1, truncated, DHFR fusion (Arabidopsis thaliana); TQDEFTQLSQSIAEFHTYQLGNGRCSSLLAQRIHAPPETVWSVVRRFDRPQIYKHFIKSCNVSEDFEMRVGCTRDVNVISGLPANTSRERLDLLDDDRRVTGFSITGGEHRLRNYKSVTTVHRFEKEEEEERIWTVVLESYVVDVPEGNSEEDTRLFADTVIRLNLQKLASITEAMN
V76A: 56.5%
F66D: 95.7%
V43A: 73.6%
I12A: 70.6%
T17Y: 79.5%
T119M: 94.1%
R155K: 97.6%
W41A: -13.1%
M68S: 87.5%
T86C: 99.3%
H55D: 91%
E128D: 106%
D95A: 55.8%
R111H: 49.9%
F124Q: 95.7%
T160S: 79%

Sample 6 — technique: Spec-seq; form: double-stranded DNA, one strand shown; matrix: in vitro; tested at: not given; notes: whole probe, mean of replicates; relative to: not given; reading: lower = stronger binding; quantity: relative binding energy; shared flanks, not repeated: GAGTCGTCTCGTCAGCAC … CCGTAGAGCACTCAGGTC
Target: Transcription factor SOX-2, HMG box (Sox2, Mus musculus, UniProt P48432, residues 41-119)
UniProt P48432, sequence (41-119, looked up): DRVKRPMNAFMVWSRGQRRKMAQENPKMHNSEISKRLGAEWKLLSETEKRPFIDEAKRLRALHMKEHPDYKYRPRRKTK
TCTAGTT: 0.316 ln ratio
TGAGGTT: 0.771 ln ratio
CATTAGT: -0.173 ln ratio
ATCAGTT: 0.416 ln ratio
GCAAGTT: 1.09 ln ratio
CATTAGC: 0.0857 ln ratio
CATTCCA: 0.317 ln ratio
CATGTGA: 0.433 ln ratio
AGATGTT: 0.396 ln ratio
CATATAA: -0.552 ln ratio

Some of these lines once more (sample 4):
TTACATTTCAGACTGGATTAGTGCTAG: 1.24 z-score
GACGATTTCAGTCTCGAGACGTGCTAG: 0.933 z-score
CCTTTTTTGTTGTTTTTTGGGTGCTAG: 2.79 z-score
GACGGTTTCAGGTTTCGGGACGTGCTA: 5.13 z-score
GACGTTTTCGACTATCGGGACGTGCTA: 3.9 z-score
TCCCTTTCAGTTTTCCTCTGGTGCTAG: 5.24 z-score
TTAGATATCAGTCTCGACTAGTGCTAG: -0.0721 z-score
TCACCTTTATATACCTGACTGTGCTAG: 1.55 z-score
TTAGATATCGGGATTCGATTAGTGCTA: 0.31 z-score
GACGATATCTGTTTCGAGACGTGCTAG: 2.42 z-score
TTTGGACTGGGGTTTCGGTTAGTGCTA: 3.19 z-score
TCATATATGTGATTAAAACTGTGCTAG: 0.406 z-score
ACCCGAGTCCCTATCTCCTCGTGCTAG: 1.22 z-score
CACAACCAAACAAGAAGATGGTGCTAG: -0.212 z-score
